Published values of several laboratories.
A part holds a random share of what one study measured. Substitutions count along the parent as printed.

Series 1
Target: Histone acetyltransferase KAT6A, both winged helices, GST fusion (KAT6A, Homo sapiens, UniProt Q92794, residues 1-181)
Method: protein binding microarray
Form: double-stranded DNA, one strand shown
Sample: in vitro
Concentration: not given
Setting: 8-mer, flanks averaged, mean of 2 arrays, mostly near background
Reference: not given
Reading: higher = stronger binding
Construct (chain): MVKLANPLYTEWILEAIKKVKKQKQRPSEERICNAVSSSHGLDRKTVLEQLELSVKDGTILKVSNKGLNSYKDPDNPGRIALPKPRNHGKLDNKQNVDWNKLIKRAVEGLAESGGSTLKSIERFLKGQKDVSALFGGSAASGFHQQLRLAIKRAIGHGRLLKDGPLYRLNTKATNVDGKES
Strand | E-score
ATTTTCCG | 0.204
ACCTGTAC | -0.00946
AACACATT | 0.00567
CCCGCCAA | 0.182
CATTCACA | -0.28
ATGTGAGG | -0.119
CCAGAATA | -0.192
GCCCGACC | 0.0513
GGCGCTCA | 0.235
AGGGTCAT | -0.129
CGGATCCA | 0.00293
ACACCCCG | 0.133
ATCAGTTA | 0.0542
AGGCACTC | -0.15
GAGTACGA | -0.0309
ATTTATCA | 0.00839
TAAAGTCA | -0.165
GGCTTAAC | -0.0348
ACGTGTTA | 0.0261
CCGCTAAG | 0.272
GACAACTC | -0.0475
CCAGGTGC | -0.205
CATATTCA | -0.0609
ACATTCGA | -0.0224
CTTATGCC | -0.0452

Series 2
Target: ABI1, truncated, D143A, DHFR fusion (Arabidopsis thaliana)
Method: DHFR PCA, deep sequencing
Sample: yeast
Setting: methotrexate growth selection, single substitutions
With: (+)-ABA 0.032 µM
Reference: wild-type fitted maximum
Reading: higher = stronger binding
Starting sequence: PYL1, truncated, DHFR fusion (Arabidopsis thaliana); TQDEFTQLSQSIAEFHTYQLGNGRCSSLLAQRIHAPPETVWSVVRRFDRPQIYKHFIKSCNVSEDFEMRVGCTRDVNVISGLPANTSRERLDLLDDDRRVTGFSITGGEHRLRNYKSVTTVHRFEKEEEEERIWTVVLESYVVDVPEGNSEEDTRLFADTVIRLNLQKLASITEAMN; partner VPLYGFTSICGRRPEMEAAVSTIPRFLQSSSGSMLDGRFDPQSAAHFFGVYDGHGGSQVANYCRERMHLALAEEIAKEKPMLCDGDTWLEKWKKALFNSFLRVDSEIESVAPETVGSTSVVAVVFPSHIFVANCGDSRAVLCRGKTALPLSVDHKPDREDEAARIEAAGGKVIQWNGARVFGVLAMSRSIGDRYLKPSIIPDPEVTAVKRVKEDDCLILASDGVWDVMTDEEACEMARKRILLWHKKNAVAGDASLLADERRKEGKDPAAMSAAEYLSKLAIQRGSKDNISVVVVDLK
Change | relative binding score [%]
P37R | -0.846
Y53N | -0.0153
V142L | -6.75
T160G | -3.81
R88D | 0.205
E147P | 34.2
D153T | -4.04
E131P | 69.3
R46L | -3.47
R32D | -5.95
S104H | -0.905
V76N | 1.37
I105F | -5.07
S9L | 27.1
T135Q | -4.73

Series 3
Target: RNA binding protein fox-1 homolog 2, RRM domain, GST-SBP tag (RBFOX2, Homo sapiens, UniProt O43251-10, residues 100-194)
Method: RNA Bind-n-Seq
Form: RNA
Sample: in vitro
Concentration: 365 nM
Setting: natural RNA segment, single round, ends assumed
Reference: no-protein control
Reading: higher = stronger binding
Constant ends, left off below: GGGAGUUCUACAGUCCGACGAUC … UGGAAUUCUCGGGUGCCAA
Construct (chain): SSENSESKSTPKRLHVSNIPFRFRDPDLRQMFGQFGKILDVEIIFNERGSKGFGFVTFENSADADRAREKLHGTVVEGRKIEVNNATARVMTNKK
Strand | RBNS enrichment (R)
UGUCCCAGCCUCCAGCAAGGGCACAGCUCUGUCCCCUGCCUUUCUCUCCCUUUGUCCCCACUGCAUGUUGACACAAGUAUGGAAGUGGAGCCUGGUUAGAACUUGUUUCU | 3.73
UCUUUCUCCCCAGCCUUCUCAUUUCCGCCUCUCCAGACACUGCGCCCUCCACCCUCACUCUGCCAUUGUUCCACCUCCUGACCUGCUCCAUCUGAGCUCUCCAGCUGGCC | 1.21
CGACAAAAUCUAUUCUAAUGUGGCUUUUUAUGGAGGGUGUAACUGUAAUGUAUUCAAAAUUGUCAGUGUGGUGGCAUCAAAUAUGUAGAGAUGGUCUUUCUGUGGAGAAU | 1.99
AAACCCGACAACAUUUCUGCCAGGUUUGUUAGGAGGCCACAUGAUACUUAUUCAAAAAAAUCCUAGAGAUUCUUAGCUCUUGGGAUGCAGGCUCAGCCCGCUGGAGCAUG | 0.263
UCAGGGCGGCCCCGUGCAGGAGCACCAGCUCACCCUCAGGCAUCUCGGACUGGAGGGCCAGCAGAAGGUCAGCAACUUACUCUUAAAACGAUUGUUUCGGAUCAUAUUGA | 0.276
GAAGCUAAUGCCGGCAUGUCCCUUGGGUGAGCUCUACAUGGUGUUAUUCAGUCUGGUUCUUGGCUCCCCACUACUGUUUCUCUCAGCCUCUCAGAGCCUGAAACUUACCU | 0.857
ACACUUGUGAACGUGUGAACGUUAACACUGUAGUUGAUAGAUCUUAAGCUGCUAAUUGUUGAGAGAGAUUUAAAUUUAUGUUCUGUCUGGUCGCUGCAGAUUCUCAGCAG | 0.552
UUGGAUUCUGAGAAACUUGCAGCUCUUCACCAUUUACUCCUGAUGUUUCUUGUAUGGGGCCGUGGCCCUUUUGGUUGUUUUUGGUCAUUUUCUUAAAAACACAACACAAC | 0.407
AUUUCAAAGCUGGUUUGCUUUUUUAAAGGACUUUAUCCAAGCAGAGAACUAUACUAUUUUUCCUAUGGGACAAUGGACUUUCAGGACCUCACUUCAUUUUCAGAGUUAAU | 0.346
ACCCUCCCAGCGAGUUGCGCUGGGAGACGCUGGCGCCAGGGCCUGCCGGCGCGGGGAGGAAAGCAAAAUCCAACUAAUGGUAUAUAUUGUAGGGUACAGAAUAGAGCGUG | 0.449
CGCUGAUGCCAGACCUUCUCCCGCUGCCAGGAAGCUGUUGUCGACUCCAGACCUGGUUGAGGGAGUAUAGAUUGGGUCUAGCUUGCUUCAGUGUACAGAAACCUCCUCUG | 0.575
CCUGCCCCUGUGGGACUCAUCCUUGCCCAGGUGAGGGAAGGAGACAGGAUGAGGUCUCGACCCUGUCCCCUAGGGACUGUCCUAGCCAGGUCUCCUGGGAAAGGGAGAUG | 0.467

Series 4
Target: CREB3L4, bZIP domain (human)
Method: DHFR protein complementation
Sample: yeast
Setting: single substitutions, most at no-binding floor
Reference: wild-type JUN-FOS pair
Reading: higher = stronger binding
Starting sequence: JUN, bZIP domain (human); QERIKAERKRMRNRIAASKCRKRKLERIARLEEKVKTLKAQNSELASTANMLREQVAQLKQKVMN; partner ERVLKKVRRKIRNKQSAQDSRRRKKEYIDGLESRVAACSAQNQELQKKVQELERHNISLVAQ
Change | binding fitness [natural log]
S43I | -1.52
E32H | -1.49
V56F | -1.47
V35W | -1.34
S47T | -1.51
Q41N | -1.57
S43N | -1.31
L38P | -1.53
S47H | -1.49

Series 5
Target: Prothrombin, mature alpha-thrombin (F2, Homo sapiens, UniProt P00734)
Method: aptamer microarray, sandwich
Form: DNA with 2'F-ANA
Sample: in vitro
Concentration: 200 nM
Setting: whole 15-mer aptamer, many near background
With: Cy3 exosite-II aptamer, 400 nM
Reading: higher = stronger binding
Strand: GGTTGGTGTGGTTGG
Modification | mean fluorescence intensity [a.u.]
2'F-ANA at 2 7 9 | 503
2'F-ANA at 5 7 9 12 13 14 15 | 60
2'F-ANA at 1 2 3 4 9 10 12 15 | 78.2
2'F-ANA at 2 4 7 8 9 10 13 | 78.2
2'F-ANA at 15 | 615
2'F-ANA at 1 2 3 4 7 8 10 12 14 | 51.8
2'F-ANA at 1 5 7 10 14 15 | 55.2
2'F-ANA at 2 3 4 5 6 7 9 11 | 85
2'F-ANA at 2 3 4 5 6 7 8 9 10 11 13 | 64.6
2'F-ANA at 2 3 4 5 7 12 14 | 56.7
2'F-ANA at 2 4 6 8 10 12 13 | 107
2'F-ANA at 1 4 5 9 11 13 | 53.1
2'F-ANA at 2 3 4 5 7 9 10 14 | 48.2
2'F-ANA at 1 2 10 14 | 43.7
2'F-ANA at 2 5 6 7 10 13 | 44.5
2'F-ANA at 1 2 5 7 9 10 13 | 41.9
2'F-ANA at 2 3 5 8 10 11 13 14 15 | 48.1
2'F-ANA at 1 2 4 5 8 9 10 11 12 14 | 47.5
2'F-ANA at 3 4 5 6 7 10 11 14 | 196
2'F-ANA at 2 4 5 7 11 14 | 56.2
2'F-ANA at 1 2 8 10 13 14 | 75.4
2'F-ANA at 2 3 5 7 8 10 11 13 15 | 53.7
2'F-ANA at 1 2 3 5 8 10 13 14 15 | 61.2
2'F-ANA at 3 4 5 8 11 13 | 79.8
2'F-ANA at 1 5 7 11 14 | 43.5

Series 6
Target: CCNE2, cyclin fold, Cln2 fusion (human)
Method: yeast growth competition, sequencing
Sample: yeast
Setting: strong parent motif
Reference: not given
Reading: higher = stronger binding
Starting sequence: E2F1 docking peptide (human); PPVKRRLDLETDH; partner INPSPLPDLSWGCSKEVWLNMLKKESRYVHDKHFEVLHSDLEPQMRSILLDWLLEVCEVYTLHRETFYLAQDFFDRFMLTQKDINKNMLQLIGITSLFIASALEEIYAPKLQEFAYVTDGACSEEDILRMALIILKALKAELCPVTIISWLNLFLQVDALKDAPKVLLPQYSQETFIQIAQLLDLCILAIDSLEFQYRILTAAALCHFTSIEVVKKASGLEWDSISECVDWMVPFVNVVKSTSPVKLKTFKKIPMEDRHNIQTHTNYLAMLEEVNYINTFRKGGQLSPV
Change | normalised enrichment score
K4M | 1.67
D12P | 2.13
L7Y | 0.388
P1S | 0.647
E10F | 1.01
P1V | 0.708
P2N | 1.1
E10L | 1.08
L7P | -0.171
L7R | 0.318
D12G | 1.57
K4V | 1.62
R5Q | 0.114
L9F | 5.76
H13L | 1.47
E10Q | 1.47
R6T | 0.687

Mixed results
Molecule | target | test | test system | setting | how to read | endpoint | value
PhoQ, residues 284 288 289 292 302 303 AGCYAI | PhoP, residues 12 14 15 18 19 NQFFI (Escherichia coli, UniProt P23836) | Sort-seq, measured: YFP reporter | E. coli | PhoQ-PhoP variant library, with: 10 µM Mg2+ | reference: high Mg2+ state, higher = stronger signaling | fold induction | 2.73

For quick reference, copied from above (series 6):
Change | normalised enrichment score
E10L | 1.08
L7Y | 0.388
D12P | 2.13
K4V | 1.62
E10F | 1.01
K4M | 1.67
R5Q | 0.114
L9F | 5.76
P1S | 0.647
H13L | 1.47
D12G | 1.57
